Values quoted from earlier work, collected from citations in different studies.
Numbered parts are unrelated; values within a part may stem from several laboratories.

Study 1
Organism: Cryptosporidium parvum
Technique: high-throughput screen
Tested at: concentration not given
Quantity: activity
CC(C)NCC(O)c1ccc(O)c(O)c1.Cl (stereo not shown): inactive
Fc1ccc([C@@H]2CCNC[C@H]2COc2ccc3c(c2)OCO3)cc1: inactive
Cc1c2oc3c(C)ccc(C(=O)N[C@@H]4C(=O)N[C@H](C(C)C)C(=O)N5CCC[C@H]5C(=O)N(C)CC(=O)N(C)[C@@H](C(C)C)C(=O)O[C@@H]4C)c3nc-2c(C(=O)N[C@@H]2C(=O)N[C@H](C(C)C)C(=O)N3CCC[C@H]3C(=O)N(C)CC(=O)N(C)[C@@H](C(C)C)C(=O)O[C@@H]2C)c(N)c1=O: inactive

Single results of other studies
Cc1c(NC(=O)c2cc(C(N)=O)nc3cc(F)ccc23)c(C(F)(F)F)nn1Cc1ccc(C#N)cc1 — IC50 (ADORA3; binding, radioligand binding Eurofins-Panlabs): 1140 nM
CC(C)(O)c1cnc2ncc(-c3ccc(F)c(-c4c(F)cccc4C#N)c3)n2n1 — Occ50 (GABAA receptor benzodiazepine site; receptor occupancy; rat; oral): 0.09 mg/kg
c1ccc2oc(-c3csc(C4CCN(Cc5nc6ncccc6[nH]5)CC4)n3)cc2c1 — IC50 (mitochondrial complex I; cell-based): 33 nM
NCc1ccc(C(F)(F)F)cc1 — pKa (amine, free unbound form): 8.8
CNC(=O)c1ccc(Nc2ncc(C(F)(F)F)c(NCc3nccnc3N(C)S(C)(=O)=O)n2)cc1 — Ki (ADORA3; Cerep selectivity panel): 27 nM
COc1ccc(CN)cc1 — pKa (amine, free unbound form): 9.6
CC(=O)Nc1c(C(C)=O)c(=O)n(C)c2nc(-c3ccc(Cl)cc3Cl)c(-c3ccc(Cl)cc3)cc12 — IC50 (MAPK14; off-target panel): 3680 nM

Repeated from above (single results of other studies):
c1ccc2oc(-c3csc(C4CCN(Cc5nc6ncccc6[nH]5)CC4)n3)cc2c1 — IC50 (mitochondrial complex I; cell-based): 33 nM
